Experimental data gathered from unrelated publications.
Parts stem from different laboratories: compare values within a part only. Several values in a cell are separate wells, animals, samples, runs or records.
UniProt P08631, sequence (whole entry, looked up): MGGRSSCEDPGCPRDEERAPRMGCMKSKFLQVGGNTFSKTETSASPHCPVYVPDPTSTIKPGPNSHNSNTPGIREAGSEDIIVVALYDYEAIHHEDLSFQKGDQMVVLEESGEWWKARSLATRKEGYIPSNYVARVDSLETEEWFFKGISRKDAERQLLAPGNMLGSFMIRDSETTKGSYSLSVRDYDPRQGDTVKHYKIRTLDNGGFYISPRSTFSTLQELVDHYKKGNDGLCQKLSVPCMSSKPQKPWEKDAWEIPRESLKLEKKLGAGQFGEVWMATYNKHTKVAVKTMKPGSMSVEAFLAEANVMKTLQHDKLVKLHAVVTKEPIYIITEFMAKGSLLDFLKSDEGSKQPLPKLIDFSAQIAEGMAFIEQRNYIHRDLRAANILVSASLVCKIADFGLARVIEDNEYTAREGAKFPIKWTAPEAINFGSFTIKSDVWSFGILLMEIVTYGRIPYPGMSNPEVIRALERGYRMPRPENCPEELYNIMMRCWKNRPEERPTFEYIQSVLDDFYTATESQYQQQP
UniProt Q14004, sequence (whole entry, looked up): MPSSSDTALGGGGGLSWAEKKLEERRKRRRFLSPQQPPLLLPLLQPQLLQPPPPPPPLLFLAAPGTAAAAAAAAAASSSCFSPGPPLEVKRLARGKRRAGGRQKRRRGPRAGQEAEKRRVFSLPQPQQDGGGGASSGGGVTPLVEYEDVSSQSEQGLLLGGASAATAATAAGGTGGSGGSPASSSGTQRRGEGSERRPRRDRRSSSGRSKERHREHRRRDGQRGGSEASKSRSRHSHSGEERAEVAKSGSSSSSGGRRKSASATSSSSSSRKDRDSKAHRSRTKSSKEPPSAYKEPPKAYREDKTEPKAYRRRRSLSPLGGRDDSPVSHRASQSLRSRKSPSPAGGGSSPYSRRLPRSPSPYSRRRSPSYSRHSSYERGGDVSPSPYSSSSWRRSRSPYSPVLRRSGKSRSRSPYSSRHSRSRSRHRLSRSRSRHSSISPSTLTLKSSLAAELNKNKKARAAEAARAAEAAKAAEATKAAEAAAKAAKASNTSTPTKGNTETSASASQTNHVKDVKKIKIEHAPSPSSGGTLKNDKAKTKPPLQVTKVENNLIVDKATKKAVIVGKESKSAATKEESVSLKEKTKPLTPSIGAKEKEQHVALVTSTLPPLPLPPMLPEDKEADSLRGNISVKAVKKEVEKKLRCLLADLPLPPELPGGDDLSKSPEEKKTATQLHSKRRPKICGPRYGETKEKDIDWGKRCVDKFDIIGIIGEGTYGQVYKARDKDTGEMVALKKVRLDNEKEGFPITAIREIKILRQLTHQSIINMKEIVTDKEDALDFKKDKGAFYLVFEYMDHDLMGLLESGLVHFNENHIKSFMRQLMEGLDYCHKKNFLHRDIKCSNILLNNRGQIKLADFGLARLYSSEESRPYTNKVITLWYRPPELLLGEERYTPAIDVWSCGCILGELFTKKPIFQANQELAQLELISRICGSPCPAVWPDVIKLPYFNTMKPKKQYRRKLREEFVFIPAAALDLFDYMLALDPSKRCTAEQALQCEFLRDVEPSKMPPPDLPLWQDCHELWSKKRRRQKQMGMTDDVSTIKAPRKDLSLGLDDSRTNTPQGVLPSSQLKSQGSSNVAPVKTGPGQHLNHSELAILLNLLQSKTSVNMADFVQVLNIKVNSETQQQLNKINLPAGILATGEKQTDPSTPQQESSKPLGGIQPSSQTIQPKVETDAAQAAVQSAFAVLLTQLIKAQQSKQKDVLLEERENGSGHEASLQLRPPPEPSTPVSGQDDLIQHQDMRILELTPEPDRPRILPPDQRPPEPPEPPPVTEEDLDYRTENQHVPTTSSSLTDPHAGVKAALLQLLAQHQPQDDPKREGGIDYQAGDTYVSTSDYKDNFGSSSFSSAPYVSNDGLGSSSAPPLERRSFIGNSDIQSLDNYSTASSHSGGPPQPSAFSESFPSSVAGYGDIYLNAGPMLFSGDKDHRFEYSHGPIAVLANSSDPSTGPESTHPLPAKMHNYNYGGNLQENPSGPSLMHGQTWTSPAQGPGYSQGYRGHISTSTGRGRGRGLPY

Series 1 — SMILES: O=C1Nc2ccccc2/C1=C\c1c(Cl)[nH]c2ccccc12; observed: enzyme activity; mode: inhibitor; concentration: 0.5 µM; relative to: control
| target | remaining activity |
| --- | --- |
| Serine/threonine-protein kinase PLK1 (PLK1, Homo sapiens, UniProt P53350) | 95.4% |
| Serine/threonine-protein kinase VRK1 (VRK1, Homo sapiens, UniProt Q99986) | 104% |
| RAF proto-oncogene serine/threonine-protein kinase (RAF1, Homo sapiens, UniProt P04049) | 89.9% |
| Mitogen-activated protein kinase kinase kinase kinase 5 (MAP4K5, Homo sapiens, UniProt Q9Y4K4) | 95% |
| Mitogen-activated protein kinase kinase kinase 9 (MAP3K9, Homo sapiens, UniProt P80192) | 97.9% |
| Dual specificity tyrosine-phosphorylation-regulated kinase 2 (DYRK2, Homo sapiens, UniProt Q92630) | 103% |
| Serine/threonine-protein kinase TAO1 (TAOK1, Homo sapiens, UniProt Q7L7X3) | 100% |
| Serine/threonine-protein kinase Sgk3 (SGK3, Homo sapiens, UniProt Q96BR1) | 102% |
| Serine/threonine-protein kinase ULK1 (ULK1, Homo sapiens, UniProt O75385) | 106% |
| Insulin receptor-related protein (INSRR, Homo sapiens, UniProt P14616) | 93.7% |
| Fibroblast growth factor receptor 2 (FGFR2, Homo sapiens, UniProt P21802) | 102% |
| Phosphorylase b kinase gamma catalytic chain, liver/testis isoform (PHKG2, Homo sapiens, UniProt P15735) | 84.2% |
| Platelet-derived growth factor receptor beta (PDGFRB, Homo sapiens, UniProt P09619) | 102% |
| Receptor-interacting serine/threonine-protein kinase 2 (RIPK2, Homo sapiens, UniProt O43353) | 85.4% |
| BDNF/NT-3 growth factors receptor (NTRK2, Homo sapiens, UniProt Q16620) | 95% |
| Tyrosine-protein kinase HCK (HCK, Homo sapiens, UniProt P08631) | 98.5% |
| Activin receptor type-1 (ACVR1, Homo sapiens, UniProt Q04771) | 100% |
| Serine/threonine-protein kinase D3 (PRKD3, Homo sapiens, UniProt O94806) | 87.7% |

Series 2 — observed: RNA clamping; method: fluorescence polarization; concentration: concentration not given; with: FAM-labelled poly r(AG)8 RNA
Target: Eukaryotic initiation factor 4A-III (Homo sapiens, UniProt P38919)
UniProt P38919, sequence (whole entry, looked up): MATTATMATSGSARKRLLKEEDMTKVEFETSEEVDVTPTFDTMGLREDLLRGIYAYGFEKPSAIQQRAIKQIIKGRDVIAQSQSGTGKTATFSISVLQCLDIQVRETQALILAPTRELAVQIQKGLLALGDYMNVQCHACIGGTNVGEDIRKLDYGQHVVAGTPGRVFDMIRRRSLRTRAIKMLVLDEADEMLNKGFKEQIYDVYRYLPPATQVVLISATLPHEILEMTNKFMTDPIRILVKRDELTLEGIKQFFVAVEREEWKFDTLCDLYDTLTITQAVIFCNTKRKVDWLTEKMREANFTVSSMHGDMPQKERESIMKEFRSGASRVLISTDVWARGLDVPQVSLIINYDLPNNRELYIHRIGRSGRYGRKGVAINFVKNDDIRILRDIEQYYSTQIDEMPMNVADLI
| SMILES | fluorescence polarization change |
| --- | --- |
| COc1ccc([C@@]23Oc4cc(OC)cc(OC)c4[C@@](O)(C2=O)[C@H](c2ccccc2)[C@H]3c2ccccc2)cc1 | -0.8 mP |
| COc1ccc([C@@]23Oc4cc(OC)cc(OC)c4[C@]2(O)[C@H](O)[C@H](C(=O)c2ccco2)[C@H]3c2cccc(OC)c2)cc1 | 17.6 mP |
| COc1cc(OC)c2c(c1)O[C@@]1(c3ccc(Br)cc3)[C@H](c3ccccc3)C3=C(N[C@@H]4CCCN4C3=O)[C@@]21O | 29.2 mP |
| COc1ccc([C@@]23Oc4cc(OC)cc(OC)c4[C@]2(O)[C@H](O)[C@H](C(=O)c2ccco2)[C@H]3c2ccccc2)cc1 | 17.2 mP and 6.8 mP |
| C#CCOc1ccc(-c2nc3c(c(=O)n2CC#C)[C@@H](c2ccccc2)[C@]2(c4ccc(OC)cc4)Oc4cc(OC)cc(OC)c4[C@]32O)cc1 | 2 mP |
| COc1ccc([C@]23[C@@H](c4ccccc4)C[C@@H](O)[C@@]2(O)c2c(F)cccc2N3C)cc1 | 9 mP |
| CCOC(=O)[C@H]1[C@@H](O)[C@@]2(O)c3c(OC)cc(OC)cc3O[C@@]2(c2ccc(OC)cc2)[C@@H]1c1ccc(Br)cc1 | -4.3 mP |
| COC(=O)[C@@H]1[C@@H](c2ccccc2)[C@]2(c3ccc(OC)cc3)Oc3cc(OC)cc(OC)c3[C@@]23NC(C2CCCCC2)=N[C@@]13O | 43.2 mP |
| COC(=O)[C@H]1[C@@H](O)[C@@]2(O)c3c(OC)cc(OS(=O)(=O)c4ccc(C)cc4)cc3O[C@@]2(c2ccc(OC)cc2)[C@@H]1c1ccccc1 | -4.8 mP |
| COc1ccc([C@@]23Oc4cc(O)cc(OC)c4[C@]2(O)c2nc4n(c(=O)c2[C@H]3c2ccccc2)CCC4)cc1 | 28.1 mP |
| COC(=O)[C@H]1[C@@H](O)[C@@]2(O)c3c(OC)cc(OC)cc3N(C)[C@@]2(c2ccc(Br)cc2)[C@@H]1c1ccccc1 | 5.9 mP |
| COC(=O)[C@@H]1[C@@H](c2ccccc2)[C@]2(c3ccc(OC)cc3)Oc3cc(OC)cc(OC)c3[C@@]23NC(N2CCOCC2)=N[C@@]13O | 30.4 mP |
| COC(=O)[C@@H]1[C@@H](c2ccccc2)[C@]2(c3ccc(OC)cc3)Oc3cc(OC)cc(OC)c3[C@@]23OC(c2ccc(C(F)(F)F)cc2)=N[C@@]13O | -2.1 mP |
| COC(=O)/C=C/Oc1nc(-c2ccccc2)nc2c1[C@@H](c1ccccc1)[C@]1(c3ccc(OC)cc3)Oc3cc(OC)cc(OC)c3[C@]21O | 0.4 mP |
| COC(=O)[C@@H]1[C@@H](c2ccccc2)[C@]2(c3ccc(OC)cc3)Oc3cc(OC)cc(OC)c3[C@@]23NC(c2csc(C)n2)=N[C@@]13O | 20.8 mP |
| COCCOCOC(=C(F)F)c1ccc([C@@H]2[C@@H](C(=O)N(C)OC)[C@@H](O)[C@@]3(O)c4c(OC)cc(OC)cc4O[C@@]23c2ccc(OC)cc2)cc1 | -4.1 mP |
| C#CCCC1(CCNC(=O)CCCn2c(-c3ccccc3)nc3c(c2=O)[C@@H](c2ccccc2)[C@]2(c4ccc(OC)cc4)Oc4cc(OC)cc(OC)c4[C@]32O)N=N1 | 4 mP |

Series 3 — concentration: 1 µM
Structure (SMILES): C[C@@H]1CN(c2cc(-c3nn(C)c4ccc(OC5(C)CC5)cc34)ncn2)C[C@H](C)O1
| target | assay | remaining binding |
| --- | --- | --- |
| AP2-associated protein kinase 1 (AAK1, Homo sapiens, UniProt Q2M2I8) | binding | 84% |
| Hepatocyte growth factor receptor (MET, Homo sapiens, UniProt P08581, M1250T) | cell-free assay, competition with immobilised ligand | 93% |
| Cyclin-dependent kinase 13 (CDK13, Homo sapiens, UniProt Q14004) | cell-free assay, competition with immobilised ligand | 86% |
| Activin receptor type-1B (ACVR1B, Homo sapiens, UniProt P36896) | cell-free assay, competition with immobilised ligand | 78% |
| Mitogen-activated protein kinase kinase kinase kinase 2 (MAP4K2, Homo sapiens, UniProt Q12851) | cell-free assay, competition with immobilised ligand | 81% |
| Mitogen-activated protein kinase kinase kinase 19 (MAP3K19, Homo sapiens, UniProt Q56UN5) | cell-free assay, competition with immobilised ligand | 68% |
| Casein kinase II subunit alpha' (CSNK2A2, Homo sapiens, UniProt P19784) | cell-free assay, competition with immobilised ligand | 86% |
| Myotonin-protein kinase (DMPK, Homo sapiens, UniProt Q09013) | cell-free assay, competition with immobilised ligand | 100% |
| Epidermal growth factor receptor (EGFR, Homo sapiens, UniProt P00533, del747-750/T751S) | cell-free assay, competition with immobilised ligand | 67% |
| Serine/threonine-protein kinase WNK3 (WNK3, Homo sapiens, UniProt Q9BYP7) | cell-free assay, competition with immobilised ligand | 91% |
| Tyrosine-protein kinase HCK (HCK, Homo sapiens, UniProt P08631) | cell-free assay, competition with immobilised ligand | 96% |
| Mitogen-activated protein kinase kinase kinase 1 (MAP3K1, Homo sapiens, UniProt Q13233) | cell-free assay, competition with immobilised ligand | 92% |
| Ribosomal protein S6 kinase alpha-2, N-terminal kinase domain (RPS6KA2, Homo sapiens, UniProt Q15349) | cell-free assay, competition with immobilised ligand | 88% |
| Wee1-like protein kinase (WEE1, Homo sapiens, UniProt P30291) | cell-free assay, competition with immobilised ligand | 100% |
| Tyrosine-protein kinase TXK (TXK, Homo sapiens, UniProt P42681) | binding, competition with immobilised ligand | 100% |
| BMP-2-inducible protein kinase (BMP2K, Homo sapiens, UniProt Q9NSY1) | cell-free assay, competition with immobilised ligand | 100% |
| Receptor-type tyrosine-protein kinase FLT3 (FLT3, Homo sapiens, UniProt P36888, D835H) | cell-free assay, competition with immobilised ligand | 84% |
| Cyclin-dependent kinase 19 (CDK19, Homo sapiens, UniProt Q9BWU1) | competition binding | 92% |
| Serine/threonine-protein kinase SBK1 (SBK1, Homo sapiens, UniProt Q52WX2) | cell-free assay, competition with immobilised ligand | 62% |

Series 4 — mode: inhibitor; concentration: concentration not given; with: without ssDNA
Target: DNA polymerase theta, helicase domain (POLQ, Homo sapiens, UniProt O75417)
UniProt O75417, sequence (whole entry, looked up): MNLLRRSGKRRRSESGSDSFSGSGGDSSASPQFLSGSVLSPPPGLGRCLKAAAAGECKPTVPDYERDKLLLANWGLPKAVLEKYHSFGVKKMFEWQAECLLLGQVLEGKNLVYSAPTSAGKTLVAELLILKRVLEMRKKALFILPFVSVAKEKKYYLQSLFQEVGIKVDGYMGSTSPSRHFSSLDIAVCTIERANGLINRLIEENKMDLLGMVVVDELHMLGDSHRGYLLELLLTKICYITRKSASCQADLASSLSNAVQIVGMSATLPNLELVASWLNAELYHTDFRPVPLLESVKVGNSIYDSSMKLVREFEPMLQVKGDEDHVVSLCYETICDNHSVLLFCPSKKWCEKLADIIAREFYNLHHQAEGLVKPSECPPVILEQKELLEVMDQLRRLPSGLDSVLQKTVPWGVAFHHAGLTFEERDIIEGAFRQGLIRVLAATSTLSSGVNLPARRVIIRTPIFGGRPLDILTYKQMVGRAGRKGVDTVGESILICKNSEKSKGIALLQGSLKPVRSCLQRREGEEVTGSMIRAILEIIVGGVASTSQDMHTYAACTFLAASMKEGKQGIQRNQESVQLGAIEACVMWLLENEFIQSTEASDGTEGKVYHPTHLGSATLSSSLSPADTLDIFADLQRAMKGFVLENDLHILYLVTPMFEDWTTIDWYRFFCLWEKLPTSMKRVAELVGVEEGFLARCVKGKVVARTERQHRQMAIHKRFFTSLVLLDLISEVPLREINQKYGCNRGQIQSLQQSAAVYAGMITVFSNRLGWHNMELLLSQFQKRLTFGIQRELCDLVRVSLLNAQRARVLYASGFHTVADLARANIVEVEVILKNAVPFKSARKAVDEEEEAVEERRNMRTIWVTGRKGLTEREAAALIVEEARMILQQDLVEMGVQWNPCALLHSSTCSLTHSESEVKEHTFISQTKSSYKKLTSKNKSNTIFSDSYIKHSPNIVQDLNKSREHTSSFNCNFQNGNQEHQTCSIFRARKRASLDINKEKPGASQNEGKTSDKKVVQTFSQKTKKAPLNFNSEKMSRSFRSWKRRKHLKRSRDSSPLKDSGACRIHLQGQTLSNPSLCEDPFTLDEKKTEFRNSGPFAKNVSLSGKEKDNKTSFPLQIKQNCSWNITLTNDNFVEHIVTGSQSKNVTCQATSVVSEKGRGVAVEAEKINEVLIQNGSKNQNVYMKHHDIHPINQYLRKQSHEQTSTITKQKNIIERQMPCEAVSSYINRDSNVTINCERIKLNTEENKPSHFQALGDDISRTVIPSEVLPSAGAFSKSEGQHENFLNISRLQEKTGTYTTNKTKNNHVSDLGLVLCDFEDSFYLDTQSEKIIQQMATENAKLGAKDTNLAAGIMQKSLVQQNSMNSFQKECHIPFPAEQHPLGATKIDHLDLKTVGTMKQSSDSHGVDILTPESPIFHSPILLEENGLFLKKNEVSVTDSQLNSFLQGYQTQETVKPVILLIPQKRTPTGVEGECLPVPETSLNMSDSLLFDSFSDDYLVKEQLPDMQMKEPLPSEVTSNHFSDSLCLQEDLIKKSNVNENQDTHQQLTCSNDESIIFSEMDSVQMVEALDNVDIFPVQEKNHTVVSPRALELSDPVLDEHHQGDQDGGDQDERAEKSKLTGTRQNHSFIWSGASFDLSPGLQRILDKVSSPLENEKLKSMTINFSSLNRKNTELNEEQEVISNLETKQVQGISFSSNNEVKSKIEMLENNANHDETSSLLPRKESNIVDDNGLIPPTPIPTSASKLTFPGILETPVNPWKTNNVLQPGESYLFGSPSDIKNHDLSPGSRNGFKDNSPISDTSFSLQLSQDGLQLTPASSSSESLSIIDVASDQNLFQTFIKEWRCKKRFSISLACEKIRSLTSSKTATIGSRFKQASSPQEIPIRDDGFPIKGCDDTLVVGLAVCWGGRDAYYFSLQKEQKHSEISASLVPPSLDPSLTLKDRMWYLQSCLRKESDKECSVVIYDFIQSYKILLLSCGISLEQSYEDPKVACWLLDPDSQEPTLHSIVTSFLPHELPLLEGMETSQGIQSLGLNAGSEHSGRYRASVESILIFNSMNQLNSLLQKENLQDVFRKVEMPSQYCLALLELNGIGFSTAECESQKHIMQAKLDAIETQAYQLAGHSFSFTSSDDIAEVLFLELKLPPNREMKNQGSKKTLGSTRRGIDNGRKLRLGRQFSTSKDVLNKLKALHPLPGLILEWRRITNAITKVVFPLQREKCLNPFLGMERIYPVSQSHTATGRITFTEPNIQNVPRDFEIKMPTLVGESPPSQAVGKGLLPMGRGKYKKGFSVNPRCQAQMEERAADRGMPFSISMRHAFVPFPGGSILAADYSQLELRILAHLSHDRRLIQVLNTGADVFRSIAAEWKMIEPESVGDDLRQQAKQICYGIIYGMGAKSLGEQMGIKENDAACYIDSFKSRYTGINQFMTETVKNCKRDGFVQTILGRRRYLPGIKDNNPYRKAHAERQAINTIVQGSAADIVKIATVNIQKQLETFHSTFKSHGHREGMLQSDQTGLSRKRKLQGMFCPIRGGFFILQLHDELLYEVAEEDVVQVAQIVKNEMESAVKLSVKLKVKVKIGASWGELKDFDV
| SMILES | remaining activity |
| --- | --- |
| C[C@H]1[C@H](C)CC[C@]2(C(=O)O)CC[C@]3(C)C(=CC[C@@H]4[C@@]5(C)C[C@@H](O)[C@H](O)[C@@](C)(CO)[C@@H]5CC[C@]43C)[C@H]12 | 57% and 57.4% |
| Cc1ccc(-c2n[nH]c3c2C(c2ccccc2Cl)N(c2ccc(C(=O)O)cc2)C3=O)cc1 (centres unmarked) | 87.5% and 81.7% |
| CC[N+](C)(CC)CCC[n+]1c(-c2ccccc2)c2cc(N)ccc2c2ccc(N)cc21 | 114% and 107% |
| O=C(O)C1=CC(=C(c2ccc(O)c(C(=O)O)c2)c2ccc(O)c(C(=O)O)c2)C=CC1=O | 8.58% and 9.2% |
| COc1cc2c(cc1Cc1cccc(Cl)c1F)c(=O)c(C(=O)O)cn2[C@H](CO)C(C)C | 33% |
| COC(=O)[C@]12CCC(C)(C)C[C@H]1[C@H]1C(=O)C=C3[C@@]4(C)C=C(C#N)C(=O)C(C)(C)[C@@H]4CC[C@@]3(C)[C@]1(C)CC2 | 90.3% and 88.1% |
| CCCCCCCC/C=C\CCCCCCCC(=O)O | 97.4% and 99.8% |
| Cc1ccccc1C(=O)Nc1sc2c(c1C(=O)O)CCC(C(C)(C)C)C2 (centres unmarked) | 30.2% and 30.7% |

Some of these lines once more (series 4):
| SMILES | remaining activity |
| --- | --- |
| C[C@H]1[C@H](C)CC[C@]2(C(=O)O)CC[C@]3(C)C(=CC[C@@H]4[C@@]5(C)C[C@@H](O)[C@H](O)[C@@](C)(CO)[C@@H]5CC[C@]43C)[C@H]12 | 57% and 57.4% |
| Cc1ccc(-c2n[nH]c3c2C(c2ccccc2Cl)N(c2ccc(C(=O)O)cc2)C3=O)cc1 (centres unmarked) | 87.5% and 81.7% |
| CC[N+](C)(CC)CCC[n+]1c(-c2ccccc2)c2cc(N)ccc2c2ccc(N)cc21 | 114% and 107% |
| O=C(O)C1=CC(=C(c2ccc(O)c(C(=O)O)c2)c2ccc(O)c(C(=O)O)c2)C=CC1=O | 8.58% and 9.2% |
